Experimental data of several laboratories.
Numbered parts are unrelated; each lists some results of a single study.

Sample 1
Target: RNA binding protein fox-1 homolog 2, RRM domain, GST-SBP tag (RBFOX2, Homo sapiens, UniProt O43251-10, residues 100-194)
Method: RNA Bind-n-Seq
Form: RNA
Matrix: in vitro
Concentration: 365 nM
Notes: natural RNA segment, single round, ends assumed
Relative to: no-protein control
Direction: higher = stronger binding
Quantity: RBNS enrichment (R)
Constant ends, left off below: GGGAGUUCUACAGUCCGACGAUC … UGGAAUUCUCGGGUGCCAA
Construct (chain): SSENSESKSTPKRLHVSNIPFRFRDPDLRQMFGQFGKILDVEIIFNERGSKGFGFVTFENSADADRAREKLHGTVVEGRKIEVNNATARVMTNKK
AAUGACACUCAGAGAGGGACAGUGCAGUUUGACAUUCAGAUAACAGCAGCAUUGGCUGCUUUUGUUGGUAGCAUGGAUUCAUGUUUUCUCAGAGGAACUUUUCACUUGAA: 1.87
UUGGGUGAAAGUGGUUCUAGAACCUGCACUGAAUAGUAGUAAAGCAAUAAGGCCCGAUUCAUCCCACAGCACUGAUCAUCUCUCAAUGCCCCACCCCAAGCGAACGGUAA: 0.456
UUAUCUUCUCAUAUUUGACAAAUUUGUGAUAGAAAUAAUAAUUCCCACAUCUACCGGUACUUGCCUAAACCCUGACUGUGCCAUCCCAAAGGCCUUGAUGUGAAUUUUCU: 0.548
UAAUUUAUUCCCUGACAUUGCUGGUGACACUGGGAAGGGAACAAGCCACAGGGAUGAGGUGAAGCCAUCUCUGUCCUUCCUGGAAUACCGGAGAUCCAGGGGCCUCCAGC: 0.498
GUAGGUGACUUGUUUACACAGCUUUUUUCGACCCACAAACUUUUUUCAUUUGGAAAGGGUGUAAGAAAAGUCGGACGUGUGUGUGCCUGGCUCUUCGUCCCCAGUCUCCC: 0.277
CCCACCCAAUCCAGCCAGUUCCCUUCAGGGAGGUUGGUGUGACCUGCUGUAGGUUCACCUUUUAGGCUACGGAUAUUGACAGGGUUUUAGAAUUGCUCUUGGUGCCUCCC: 0.567
UAGUUAGCUGUCUGUUGUCUGUAGCCCAGCUUGAUAAUGGAACUAUACAGCGAAGAGACAAUCUCUGCACUUUGCUAUGUAGCUGUGUACAUAUCACUACAGUUAUAGGA: 0.604
AGCAACAGUAACCCUUGCCAAGCAACGACGGGGUAGAAUUUCUAUGUUCCCAAAUUCAGCAGUAACGUCCACAUGGGACCUUUUCACGUGACUCUGUGGGGCUUCUUUCU: 0.31
GUCGGCAUCGAAAGAGAAAUGGAAAUCCCUUGACAUCUGCUACCUCCUCCCCCCUCCUCUGAAACAGCUGCCUUAGCUUCAGGAACCUCGAGUACUGUGGGCAAUUUAGA: 0.483
GACAGGUUACUUGGUGUAUCUUCUGUUAAAGAGGAUUGCACGAGUGUGUUUUCCUCACACACUUUGAUUUGGAGAAUUGGUGCUAGUUGGCAAUAGAUAACUCAGCGUAG: 0.3
GUAUGCACAUUUGGGGGUAUAUCUAUUUCUGAAGAGGUAAGCUGAUCAAAAUAAAUAGAGUGUAAAUUCUUUUUAAUGCUUUAGUGAUUAAAUGUUUUAGUAUUUUGAAC: 0.671
UGGAAGUGUGAGGGGGGUGGAUGGGAAAGUCAAAGUCUGGUCUUGAGGGUCAUGGGUUUGCUUUUGCUGUUGUGACGCCUGUUCCCGUCUCUAUGUUAAAAUGCCAAAAA: 1.05

Sample 2
Target: Ras GTPase-activating protein-binding protein 1, C-terminal RGG region (G3BP1, Homo sapiens, UniProt Q13283)
Chain of UniProt Q13283 (whole entry, looked up): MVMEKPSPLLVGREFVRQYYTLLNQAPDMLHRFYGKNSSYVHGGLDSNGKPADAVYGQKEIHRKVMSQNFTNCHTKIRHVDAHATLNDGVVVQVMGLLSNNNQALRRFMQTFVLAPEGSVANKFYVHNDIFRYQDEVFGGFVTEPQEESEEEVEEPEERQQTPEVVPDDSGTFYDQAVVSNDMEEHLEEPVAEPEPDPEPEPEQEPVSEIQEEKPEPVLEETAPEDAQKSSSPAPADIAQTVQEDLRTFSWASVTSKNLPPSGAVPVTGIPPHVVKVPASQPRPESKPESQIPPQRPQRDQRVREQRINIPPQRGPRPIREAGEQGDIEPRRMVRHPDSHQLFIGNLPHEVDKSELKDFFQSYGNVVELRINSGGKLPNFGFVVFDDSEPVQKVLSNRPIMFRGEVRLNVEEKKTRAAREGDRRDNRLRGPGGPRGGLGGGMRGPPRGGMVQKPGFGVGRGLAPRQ
Method: RNA Bind-n-Seq
Form: RNA
Matrix: in vitro
Concentration: 1 µM
Notes: whole 134-nt RNA, ends assumed
Together with: 150 mM KCl
Relative to: input library
Direction: higher = stronger binding
Quantity: log2 enrichment
Constant ends, left off below: GGGAGUUCUACAGUCCGACGAUC … UGGAAUUCUCGGGUGUCAAGG
CCUCAAGUCCUGUGCUACACAUCGUAUGUACCGAAUCGGUUGGGUUGGUUGGAAAGUAUUAUGUUACGCCGUUCGGAUCUGCACUUCCAG: -0.371
ACCAUGCAGGUGGGCAUCUUUGGGAAGUGGGGCAAGGGGGGGAUAGGGAGGGGGGUAACACUUUGGGAACAGGUGGUCCCACGUCGUUUC: 1.73
AGUCCUGUGCUACACAUCGUAUGUACCGAAUCGGGGUUUUGGGUUUUGGGGUUUUGGGAAAGUAUUAUGUUACGCCGUUCGGAUCUGCAC: 0.335
UCAAGUCCUGUGCUACACAUCGUAUGUACCGAAUCGGUUUGGAGGUUUUUUUGGAAAGUAUUAUGUUACGCCGUUCGGAUCUGCACUUCC: -0.993
UUAUCUGUGGACUUCACCCAAAAGGAGUGGCAGCUACUGGAUCCCUCUCAGAAGAAUUUAUACAAGGAUGUGAUGUUGGAGAACUAUAGC: -1.03
UCCUGUGCUACACAUCGUAUGUACCGAAUCAAACCCAAACCCCCCCAAACCCCCCCAAAAAAGUAUUAUGUUACGCCGUUCGGAUCUGCA: -0.675
CAAGUCCUGUGCUACACAUCGUAUGUACCGAAUCGGUGGAAAAAAAGGUUUUUGGAAAGUAUUAUGUUACGCCGUUCGGAUCUGCACUUC: -1.68
CACAGACAACACGCACCCACACAGACACAGAGGGAAGGGGUUGGGAUGGGGACAGGGUGCACAGCAGGGCGGGGUAGGACCCCAAAACCU: -0.395
ACCAUGCAGGUGGGCAUCUUUGGGAAGUGGGGCAAGGGGGGGAUAGGGAGGGGAGUAACACUUUGGGAACAGGUGGUCCCAGGUCGUUUC: 1.98
GCAGGAAGUAAAAACAAAUGGAAAUGCUUCGGAUAGUGGCAGGGGUGGGGGUUGCUAAGGAGAGGGUGGGAUGGGAGUGGGUAAAGAGUU: 1.5
CUGUGCUACACAUCGUAUGUACCGAAUCGGGGUUUUUUUGGGGAAAAAGGGGUUUUUGGGGAAAGUAUUAUGUUACGCCGUUCGGAUCUG: 0.0807
UAACUUUAGAGGUGGAUCUGAUGGAUAUGGCAGUGGACGUGGAUUUGGGGAUGGCUAUAAUGGGUAUGGAGGAGGACCUGGAGGUGGCAA: -1.26
UUGAGAAAAGCACCCAUAAUUUGCUACUUGAGGAUUUUAUUCCCUGGAUUCUCUGGAUGCUCAUUGCAUGAAAAGUGGAAAAGUUUAGAU: -0.979
CUCAAGUCCUGUGCUACACAUCGUAUGUACCGAAUCGGGGAGGGGAGGGAGGGAAAGUAUUAUGUUACGCCGUUCGGAUCUGCACUUCCA: 2.49

Sample 3
Target: RING finger protein unkempt homolog, zinc fingers 1-6, SBP tag (UNK, Homo sapiens, UniProt Q9C0B0, residues 30-357)
Chain of UniProt Q9C0B0 (30-357, looked up): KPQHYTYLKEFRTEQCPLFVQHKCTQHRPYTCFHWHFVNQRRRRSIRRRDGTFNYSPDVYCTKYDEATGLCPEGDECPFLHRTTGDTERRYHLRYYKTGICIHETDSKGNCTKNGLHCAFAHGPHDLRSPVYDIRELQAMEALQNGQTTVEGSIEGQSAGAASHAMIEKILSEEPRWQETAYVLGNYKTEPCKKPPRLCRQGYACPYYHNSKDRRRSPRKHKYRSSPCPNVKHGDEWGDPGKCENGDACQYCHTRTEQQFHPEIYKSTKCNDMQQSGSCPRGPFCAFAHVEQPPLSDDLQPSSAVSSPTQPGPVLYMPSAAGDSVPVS
Method: RNA Bind-n-Seq
Form: RNA
Matrix: in vitro
Concentration: 100 nM
Notes: RNA with constant flanks, vertebrate orthologous sites, ends assumed
Relative to: input RNA pool
Direction: higher = stronger binding
Quantity: bound/input enrichment
Constant ends, left off below: GGGAGUUCUACAGUCCGACGAUC … CAACAGAGGAUUGAGCAUCA
GCAUGCACAUGCCGCUGUCACCAAAAGCAACUACCGUCUUCAAAACCUCCAAUAGCCUUCUUAGGAUUCUCUCCCUCUUUCCCUUCUGUUCCCCCGAUGCUUUAAAUGAUUAGAAGUCCU: 1.5 ratio
CUGAAGCUUUGUGUUUGGCUGCACUUGCAUAAGCUGCUACAAAUAGAAUAAAGAAUUUCAUAGCCUGUAUCUAUCAUUUAGAUGCAUGGAAAAAAAUGGGCUUUGCACACAAUGGGUUUG: 1.75 ratio
UACAAGAAGAGCUCACAAACUCAAAGGAAAACUAGUAAAGAGUUUCUAAGAGUUAAAAGCUAGGAAAGAUUAGGACAACUUUACAAAUGAGCAAUUAAAAACAGAACAAAAAAGGAAAUG: 0.317 ratio
CUUAAAGUCAUUUUCCCACAUUUCCUGUAAAUAAUGGAUAAUCAUUUUUAUUUUAUUUUUAAGUACUGUUUUAACAAUGUGGAUAGACCAUAAAUGUACUUGCUGAAUUCAUUCAUGUUU: 0.269 ratio
AGGGACGCUUUGAUGUAAAAAUUGAAGUUAAGAGCUGAUCACAAGCACAAAUCUUUCCCACUAGCCAUUUAAAAAGUUAAAAGAUACAAAAAACAAAAACCUACUAGUCUUGAAUAAACU: 2.66 ratio
CUCUAUGGGCCUCGCAGAGUUGAAAUAAUGGAAGAGGAAAGUGAACAGUAAUCUUCAUUUUAGUAUUUAUGUUUAGGUGUGAAAUAAAUGUUAUUUGUUGACCAUUUGUGUAAUCCAGAG: 1.11 ratio
GUGGCACCCUCUGUGAGAGGGAGUGGGGGGAGUCCAGGAUGACCCUCCGUUGUUCCGAUCCAGUAUUUUUUUUCUUUUUUUAAACUUACUGUAUUUAUUAUGACGAUGGUGACUCCCCAG: 0.346 ratio
UUUGAUUUUAUGUGUUUAAAAAGCUUGAAAAACAUUGCUUUAAAAAAGGAAAAAAAAAAGGCAAAUAGAGCAACCCGUUGUUAAAGUAGAAGAGUUUUUAGCUAGAGAACGUGCUCGCUU: 0.273 ratio
UACUAGUGUCACACCAGCAUACUCACUGCUCCUUUGUACACAGCUUCCGAUGAUCAGUCUAGUUGUAUUUUUUAAUUUAAACUAUGAAAUACUGCUUUUCCCAAGACUUUGAAAAAGAUA: 0.782 ratio
AUAAGAACUCUUGCAUUCUUAGAUGUUAUAAAAAAUAUGUAUCUGAACUGUAAGAGUUAUUAGUAAACAGUUUUUUUUUUUAAAGCACUUGUUUUGGGUACAAGGCUUUUCUGAAAUUUU: 0.539 ratio
GAAGAGCUGAGUAGAGUAAGGCUGCGUUUACUUAGAGCGUUUUUCCUUGUUUUUAGUUUGCUAGGGGUUGGGUGGGUUGUGGCGCACACCUUCUCUGAGGCAGGAGCUGUAGUGAUACCA: 3.7 ratio

Sample 4
Target: Interferon regulatory factor 1, DNA-binding domain (IRF1, Homo sapiens, UniProt P10914, residues 1-114)
Method: protein-binding microarray
Form: hairpin DNA
Matrix: in vitro
Concentration: not given
Notes: whole hairpin DNA, median over replicate spots
Relative to: not given
Direction: higher = stronger binding
Quantity: median fluorescence
Constant ends, left off below: GAGGCCCG … CGGGCCTCACAC
Construct (chain): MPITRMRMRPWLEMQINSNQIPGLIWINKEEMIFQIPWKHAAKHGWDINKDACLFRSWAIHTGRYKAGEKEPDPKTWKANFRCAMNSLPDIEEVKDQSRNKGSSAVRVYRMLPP
AGAGCGAAACGCCTCCTGGCGTTTCGCTCT: 516 a.u.
AAAGCGAGACGCCTCCTGGCGTCTCGCTTT: 470 a.u.
CGAGCGAAACGCCTCCTGGCGTTTCGCTCG: 523 a.u.
AAAGCGACACGCCTCCTGGCGTGTCGCTTT: 508 a.u.
AAAGTGCGACGCCTCCTGGCGTCGCACTTT (5mC at 15): 502 a.u.
AAAGCGAAACGCCTCCTGGCGTTTCGCTTT (5mC at 35): 1860 a.u.
AAAGTCGAACGCCTCCTGGCGTTCGACTTT (5mC at 32): 527 a.u.
AAAGGGAAACGCCTCCTGGCGTTTCCCTTT (5mC at 34): 599 a.u.
AAAGCGAAACGCCTCCTGGCGTTTCGCTTT (5mC at 7 39): 1150 a.u.
AAAGTGCGACGCCTCCTGGCGTCGCACTTT: 540 a.u.
ACAGCGAAACGCCTCCTGGCGTTTCGCTGT (5mC at 10): 516 a.u.
AAAGTGTAACGCCTCCTGGCGTTACACTTT: 526 a.u.
AAAGTGAAAAGCCTCCTGGCTTTTCACTTT: 911 a.u.
AAGGCGAAACGCCTCCTGGCGTTTCGCCTT: 550 a.u.
ACGGCGAAACGCCTCCTGGCGTTTCGCCGT (5mC at 36): 512 a.u.
AAACTGAAACGCCTCCTGGCGTTTCAGTTT: 1120 a.u.

Repeated from above (sample 2):
ACCAUGCAGGUGGGCAUCUUUGGGAAGUGGGGCAAGGGGGGGAUAGGGAGGGGGGUAACACUUUGGGAACAGGUGGUCCCACGUCGUUUC: 1.73
CUCAAGUCCUGUGCUACACAUCGUAUGUACCGAAUCGGGGAGGGGAGGGAGGGAAAGUAUUAUGUUACGCCGUUCGGAUCUGCACUUCCA: 2.49
CAAGUCCUGUGCUACACAUCGUAUGUACCGAAUCGGUGGAAAAAAAGGUUUUUGGAAAGUAUUAUGUUACGCCGUUCGGAUCUGCACUUC: -1.68
